Measured values gathered from unrelated publications.
Every numbered part comes from another study and shows a few of its results, in no order. Changes are numbered by the printed parent chain.

Sample 1 — technique: RNA Bind-n-Seq; molecule type: RNA; medium: in vitro; concentration: 365 nM; baseline: no-protein control; reading: higher = stronger binding
Target: RNA binding protein fox-1 homolog 2, RRM domain, GST-SBP tag (RBFOX2, Homo sapiens, UniProt O43251-10, residues 100-194)
Notes: natural RNA segment, single round, ends assumed
Shared flanks, not repeated: GGGAGUUCUACAGUCCGACGAUC … UGGAAUUCUCGGGUGCCAA
Construct (chain): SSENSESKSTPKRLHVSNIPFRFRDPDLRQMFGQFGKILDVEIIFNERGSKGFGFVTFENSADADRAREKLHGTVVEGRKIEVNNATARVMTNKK
Oligonucleotide | RBNS enrichment (R)
AGUCACGUUUGCUUGGCUCUGGUACCAAAUAGUUGGGAUUACCGAAGAGUCCCCUUCCUUGCGUGUCAGCACGGAUGCUGUGACUGCCACCUGCGUCCUCGUCAAGUGCC | 0.516
CUGUGUGGUGUCGCGCCUUCUCCCCCCCGGGGCUGGGUUGGCGCACCCUCCCCUCCCGUCUACUCAUUCCCCGGGGCGUUUCUUUGCCGAUUUUUGAAUGUGAUUUUAAA | 9.44
GUAAAUAUAAAUCUGUCAGCCACUACAGCCAUCAAAAGAGAGCAUCUGGAAGAACAGCCAGCUUGGAAGUUUUACAGCAAUAAUGUUGCAGUGGAAUAUUAUUUGUAGUU | 0.477
AAUAUUGUUUAAUCUUAAAACUGGGCAACUUUGGAAGAACUUUUAACAGAAGCCUCAAUGAUGAUCACUUUGAAUUGCUUGUGAUUUCAAAAAUAAAGCAGUGAAGCAAU | 0.692
CACUAACAUCCUCCUACACCGGUCCAUCGUGUUCGGCUCUGAUCAGGAAUAGACAAGGCUUCUUUGACUGUCAAGUGAUUAACAUAUGGUACCCGGUGUCAGAACAUUUA | 0.272
AAGCCAUACUGGGCGGCAGCAGGAGCGACCAACUGAUCGCACACAUGCUUUGUUUGGAUAUGGAGUGAACACAAUUAUGUACCAAAUUUAACUUGGCAAACUUUCUAUUG | 0.391
GAUCUUUGGAGUGUGGGAAUGGAAGCUGCUUUGAGGCAAAGGCUCAUAAACCCUGCAAGUCUUCAUGGUCUUCUCACCAGCCUUUCCAGCAGGUUCUAGUGCCUUGACCU | 0.382
UCAAAACUGUGCUUCCAUUAUUAGUGCAAGAAACAGACAGGCUUUAAGGGGUAGAUGACGUGAAAUUUUGCAAGUCUUAAUUACAGCUGCAGAUGCAUGGGAUUCUGGAU | 1.98
UCUGAUGUGUGAAAUUUAAGGAAAGAGCCAUUUAAUAAAUGCCAAGCAGGGCAAUGCAGCCAAAUAUUAGAGUUGAUGUGCAGUCUUAGGUCCUUUUUAAUCUGGGGUAU | 0.753
UUAUGAAUGGGUGUAAUUAGGAAAUACUUCUCAUCUGACAGCUACAAAUAACUAAGUUUGGAGGUAUUUUCACUCUAUAUGAAUAAAUAUUUUUCCAUAAAAUAGUUGUG | 0.398
AGUAUUAAGGUGAAUUUUUUUUAAGUAUUUGGGAUAGGUUUGCAGACACCUACAGUUACUGAAGUCUCUCAGAAACUCAGGGAAUAUUGAAAACCCAUGCUGUGAACUGU | 0.44
UAAACAAUCUAAUUAAAUGGCAUCAGCACUUUAACCAAUGACGUUUGCAUAGAGAGAAAUGAUUGACAGUAAGUUUAUUGUUAAUGGUUCUUACAGAGUAUCUUUAAAAG | 0.431

Sample 2 — technique: universal PBM; molecule type: double-stranded DNA, one strand shown; medium: in vitro; concentration: not given; reading: higher = stronger binding
Target: Sal-like protein 4, full length isoform B (SALL4, Homo sapiens, UniProt Q9UJQ4-2, residues 1-616)
Notes: 8-mer, flanks averaged, mean of replicates
Oligonucleotide | E-score
ACGAGTGA | -0.172
ATGCGTTG | 0.122
CATCTTGA | -0.00573
CTTGCAAG | -0.0302
CTCAGTCA | -0.0656
ACTTGGAG | -0.0701
CCATACCG | -0.0873
AAACTCGT | 0.0389
CGCCAGCC | -0.216
ATCGAGGG | -0.154
ACTTTATA | 0.349
GCACGTAA | 0.0354
ACTCGTCC | -0.099
CCGGGATA | -0.128
CCTGTACA | 0.121
CTCCGTTA | 0.0888
CGAGATTA | -0.00644
CGCGGTGA | -0.31

Sample 3 — technique: DHFR PCA, deep sequencing; medium: yeast; together with: (+)-ABA 710 µM; baseline: wild-type fitted maximum; reading: higher = stronger binding
Target: ABI1, truncated, D143A, DHFR fusion (Arabidopsis thaliana)
Notes: methotrexate growth selection, single substitutions
Parent: PYL1, truncated, DHFR fusion (Arabidopsis thaliana); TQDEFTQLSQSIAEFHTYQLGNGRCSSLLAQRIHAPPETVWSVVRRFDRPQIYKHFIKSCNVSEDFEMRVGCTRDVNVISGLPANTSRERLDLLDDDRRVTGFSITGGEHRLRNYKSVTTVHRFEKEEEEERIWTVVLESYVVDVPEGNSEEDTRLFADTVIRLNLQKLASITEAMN
Substitution | relative binding score [%]
S150V | 87.4
R132C | 113
Q51A | 92
T120Y | 14.5
N114M | 69.2
E14L | 91.7
E89M | -1.3
E14I | 81.9
V118I | 104
T154K | 7.05
P36G | 92.7
R45E | 46.7
P146E | 47.6
H110K | 6.04
I57N | 41.3
C72Q | 105
F5T | 104
D92K | 39.1

Sample 4 — technique: protein binding microarray; molecule type: double-stranded DNA, one strand shown; medium: in vitro; concentration: not given; baseline: not given; reading: higher = stronger binding
Target: Histone acetyltransferase KAT6A, winged helix 1, GST fusion (KAT6A, Homo sapiens, UniProt Q92794, residues 1-85)
Notes: 8-mer, flanks averaged, mean of 2 arrays, mostly near background
Construct (chain): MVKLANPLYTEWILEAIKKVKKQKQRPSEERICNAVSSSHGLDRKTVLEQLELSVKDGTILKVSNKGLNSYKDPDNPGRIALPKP
Oligonucleotide | E-score
CAGAACAA | -0.203
GACATTAC | 0.0422
CCCCACTA | -0.173
GAATGGGA | -0.238
ATACAGCA | -0.175
GCACATCC | 0.0498
CAGCCGCG | 0.38
AACGTTTG | 0.0137
GGTTTGAA | -0.204
AGCGGTGC | 0.102
ACGTAAGA | -0.189
AGAACAGG | -0.216
GTACGGGA | 0.322
ACATTTAT | -0.0637
ACCACTCT | -0.129
CAATATAC | -0.0204
CTGTCTAA | -0.108
GAACTACA | -0.0336
ATATTCCG | 0.0154
AAGGATAT | -0.136
TAGCTGAA | -0.159
AAGCCCTT | -0.114
CGTCAGAC | 0.0565
CTGTGATC | -0.165
AAATAGGA | -0.138

Sample 5 — technique: RNA Bind-n-Seq; molecule type: RNA; medium: in vitro; concentration: 200 nM; notes: whole 134-nt RNA, ends assumed; together with: 150 mM KCl; baseline: input library; reading: higher = stronger binding
Target: Fragile X messenger ribonucleoprotein 1, C-terminal low-complexity region (Fmr1, Mus musculus, UniProt P35922)
Shared flanks, not repeated: GGGAGUUCUACAGUCCGACGAUC … UGGAAUUCUCGGGUGUCAAGG
Oligonucleotide | log2 enrichment
AGUCCUGUGCUACACAUCGUAUGUACCGAAUCGGCCCCCGGCCCCCGGGCCCCCGGGAAAGUAUUAUGUUACGCCGUUCGGAUCUGCACU | -0.367
CAAGUCCUGUGCUACACAUCGUAUGUACCGAAUCGGGAAAGGGAAAAAGGGAGGGAAAGUAUUAUGUUACGCCGUUCGGAUCUGCACUUC | 0.827
UUCCUUUCCGUUGUGUGUUUUAAAGGUGUGUGCCCUCUUCCUGAUUCUGGAGAAAAAUGCCGGUCCGGAAGCAAGGUGAGAGUUUAUUCC | 0.387
AGUCCUGUGCUACACAUCGUAUGUACCGAAUCGGUUUGGUUUUUUUGGAAAAAAAGGAAAGUAUUAUGUUACGCCGUUCGGAUCUGCACU | -1
GUCCUGUGCUACACAUCGUAUGUACCGAAUCGGGUUUUUGGGAAAGGGUUUUUUUGGGAAAGUAUUAUGUUACGCCGUUCGGAUCUGCAC | -0.0797
GGUGCGGCUCUAUGAGUGGACAACAGAGAAGGAGCUGCGCACUGAGUGCAACCACUACAACAACAUCAUGGCCCUCUACCUGAAGACCAA | -0.00306
CUCAAGUCCUGUGCUACACAUCGUAUGUACCGAAUCGGAAAGGAGGAAAAAGGAAAGUAUUAUGUUACGCCGUUCGGAUCUGCACUUCCA | -0.151
CCUCAAGUCCUGUGCUACACAUCGUAUGUACCGAAUCGGUGGAAAGGAAAGGAAAGUAUUAUGUUACGCCGUUCGGAUCUGCACUUCCAG | 0.0951
ACCAUGCAGGUGGGCAUCUUUGGGAAGUGGGGCAAGGCGGGGAUAGGGAGGGGGGUAACACUUUGGGAACAGGUGGUCCCAGGUCGUUUC | 0.896
CACAGACAACACGCACCCACACAGACACAGAGGGAAGGGGUUGGGAUGGGGACAGGGUGCACAGCCGGGCGGGGUAGGACCCCAGCCCCU | 1.28
UGGGAGGUGGAUUUUGUUUAUUUUUUUAGCUCAUUUCCAGGGGUGGGAAUUUUUUUUUAAUAUGGGUCAUGAAUAAAGUUGUUUUUGAAA | 0.217
CUCAAGUCCUGUGCUACACAUCGUAUGUACCGAAUCGGGAAGGAAGGGGAAGGAAAGUAUUAUGUUACGCCGUUCGGAUCUGCACUUCCA | -0.0273
CCUCAAGUCCUGUGCUACACAUCGUAUGUACCGAAUCGGAAAAAGGAGGAGGAAAGUAUUAUGUUACGCCGUUCGGAUCUGCACUUCCAG | 0.216
UGGCCCUGCUGGCAUGCGGGGAGGAAGAGGUGGCCUCAUGGAUCGUGGUGGUCCCGGUGGAAUGUUCAGAGGUGGCCGUGGUGGAGACAG | -0.336

Some of these lines once more (sample 2):
Oligonucleotide | E-score
ACGAGTGA | -0.172
ATGCGTTG | 0.122
CATCTTGA | -0.00573
CTTGCAAG | -0.0302
CTCAGTCA | -0.0656
ACTTGGAG | -0.0701
CCATACCG | -0.0873
AAACTCGT | 0.0389
CGCCAGCC | -0.216
ATCGAGGG | -0.154
